Results from different studies.
Protocols differ between the studies behind these lines. Values joined by “and” are separate records of one study, mostly repeats; a detail may differ. ± marks the error that the study gave.
Sequence of UniProt Q9HCP0 (whole entry, looked up): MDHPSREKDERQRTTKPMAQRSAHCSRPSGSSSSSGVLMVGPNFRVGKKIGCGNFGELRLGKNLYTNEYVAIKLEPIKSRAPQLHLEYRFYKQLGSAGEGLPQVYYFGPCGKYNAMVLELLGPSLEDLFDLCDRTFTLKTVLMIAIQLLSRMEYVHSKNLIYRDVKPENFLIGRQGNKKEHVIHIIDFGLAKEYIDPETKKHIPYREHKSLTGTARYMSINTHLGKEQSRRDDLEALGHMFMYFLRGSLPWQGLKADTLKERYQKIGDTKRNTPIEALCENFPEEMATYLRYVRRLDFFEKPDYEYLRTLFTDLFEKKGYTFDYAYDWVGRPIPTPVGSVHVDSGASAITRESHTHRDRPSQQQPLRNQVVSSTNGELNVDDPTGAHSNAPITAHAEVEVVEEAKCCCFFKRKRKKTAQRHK
Sequence of UniProt Q9NRH2 (whole entry, looked up): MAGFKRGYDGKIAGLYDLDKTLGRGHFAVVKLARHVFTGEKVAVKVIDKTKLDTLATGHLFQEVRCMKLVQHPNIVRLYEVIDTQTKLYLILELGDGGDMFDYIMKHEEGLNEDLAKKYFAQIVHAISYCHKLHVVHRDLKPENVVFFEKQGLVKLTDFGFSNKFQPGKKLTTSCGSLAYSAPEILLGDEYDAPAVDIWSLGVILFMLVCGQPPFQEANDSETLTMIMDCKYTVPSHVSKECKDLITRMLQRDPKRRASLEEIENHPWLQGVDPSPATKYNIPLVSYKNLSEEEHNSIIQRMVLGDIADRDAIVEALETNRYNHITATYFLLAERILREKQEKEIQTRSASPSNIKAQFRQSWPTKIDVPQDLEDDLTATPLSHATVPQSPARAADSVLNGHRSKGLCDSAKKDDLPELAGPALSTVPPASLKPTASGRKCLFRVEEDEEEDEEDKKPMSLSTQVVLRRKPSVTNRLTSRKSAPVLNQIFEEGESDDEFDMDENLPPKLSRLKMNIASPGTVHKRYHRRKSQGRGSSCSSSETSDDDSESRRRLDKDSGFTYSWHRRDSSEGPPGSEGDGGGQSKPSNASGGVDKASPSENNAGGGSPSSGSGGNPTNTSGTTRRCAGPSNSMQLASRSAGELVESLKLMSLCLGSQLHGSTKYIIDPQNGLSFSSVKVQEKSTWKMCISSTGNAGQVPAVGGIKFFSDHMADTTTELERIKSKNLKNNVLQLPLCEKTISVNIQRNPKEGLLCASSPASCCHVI
Sequence of UniProt Q9P2K8 (whole entry, looked up): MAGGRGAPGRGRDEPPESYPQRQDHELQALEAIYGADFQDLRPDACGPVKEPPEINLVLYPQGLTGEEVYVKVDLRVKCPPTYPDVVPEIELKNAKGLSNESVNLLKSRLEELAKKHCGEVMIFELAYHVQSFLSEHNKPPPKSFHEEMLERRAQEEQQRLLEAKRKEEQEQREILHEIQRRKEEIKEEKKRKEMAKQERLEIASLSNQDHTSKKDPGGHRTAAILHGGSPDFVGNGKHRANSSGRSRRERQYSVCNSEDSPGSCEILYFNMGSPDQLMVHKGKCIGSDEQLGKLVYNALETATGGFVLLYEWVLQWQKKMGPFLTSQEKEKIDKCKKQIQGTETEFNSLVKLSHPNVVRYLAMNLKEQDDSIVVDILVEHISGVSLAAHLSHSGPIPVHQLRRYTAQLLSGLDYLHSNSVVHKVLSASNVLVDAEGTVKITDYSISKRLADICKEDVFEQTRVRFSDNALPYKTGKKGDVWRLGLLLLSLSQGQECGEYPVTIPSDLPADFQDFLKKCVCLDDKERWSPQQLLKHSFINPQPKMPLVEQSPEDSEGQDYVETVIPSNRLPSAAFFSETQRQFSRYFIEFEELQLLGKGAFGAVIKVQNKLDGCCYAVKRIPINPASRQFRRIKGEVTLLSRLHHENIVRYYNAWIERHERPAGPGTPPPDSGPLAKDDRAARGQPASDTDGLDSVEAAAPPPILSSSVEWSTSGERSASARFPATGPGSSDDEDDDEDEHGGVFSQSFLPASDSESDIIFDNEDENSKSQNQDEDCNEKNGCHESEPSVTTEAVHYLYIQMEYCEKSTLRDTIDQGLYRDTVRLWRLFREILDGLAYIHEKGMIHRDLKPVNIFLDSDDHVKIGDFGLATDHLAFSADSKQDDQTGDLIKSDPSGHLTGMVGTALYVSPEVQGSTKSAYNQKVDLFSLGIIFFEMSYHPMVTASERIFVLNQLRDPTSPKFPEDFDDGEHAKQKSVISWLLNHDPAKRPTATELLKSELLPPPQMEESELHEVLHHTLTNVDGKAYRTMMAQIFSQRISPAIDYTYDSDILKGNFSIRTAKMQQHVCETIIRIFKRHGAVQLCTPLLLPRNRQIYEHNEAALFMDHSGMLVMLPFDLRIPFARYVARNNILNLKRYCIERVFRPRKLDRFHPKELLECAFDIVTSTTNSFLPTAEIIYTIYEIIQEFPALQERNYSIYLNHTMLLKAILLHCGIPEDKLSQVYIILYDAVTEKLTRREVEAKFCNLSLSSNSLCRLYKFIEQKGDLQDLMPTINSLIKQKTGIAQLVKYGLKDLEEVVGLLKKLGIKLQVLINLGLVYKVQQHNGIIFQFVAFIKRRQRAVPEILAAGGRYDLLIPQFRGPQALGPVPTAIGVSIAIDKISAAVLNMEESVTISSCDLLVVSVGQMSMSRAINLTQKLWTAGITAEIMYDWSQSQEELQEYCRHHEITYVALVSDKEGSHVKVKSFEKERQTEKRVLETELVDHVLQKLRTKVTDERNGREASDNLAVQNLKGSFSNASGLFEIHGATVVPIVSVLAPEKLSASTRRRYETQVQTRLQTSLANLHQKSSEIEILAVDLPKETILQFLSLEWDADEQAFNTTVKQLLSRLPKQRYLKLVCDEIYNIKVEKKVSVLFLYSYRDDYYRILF

SMILES | tested on | assay | system | setting | how to read | quantity | value
COc1ccc(CNc2ccc3c(c2)S(=O)(=O)C=C3)cc1 | – | flow cytometry | male C57BL/6 mice, spleen | i.p., 10 mg/kg, 8 days | reference: CD45+ cells | Gr-1+ CD11b+ cells | 0.58%
CN(C)[C@H]1C[C@@]23CC[C@@]4(O2)C(=CC[C@]2(C)[C@@H](c5ccc6ccncc6c5)CC[C@H]24)C=C3[C@@H](O)[C@@H]1O | eIF-2-alpha kinase GCN2 (EIF2AK4, Homo sapiens, UniProt Q9P2K8) | ATP probe labelling, inhibitor, KiNativ profiling | – | 0.1 µM | – | inhibition | 6.9%
COc1ccccc1-c1n[nH]c2nc(N[C@H]3CC[C@H](NS(=O)(=O)CC(C)C)CC3)ncc12 | – | bead binding, competition bead pull-down, item: LINJ.23.0310 | Leishmania donovani extract | 10 µM | reference: vehicle | relative abundance | 1.39
N=C(N)NCCC[C@H](NC(=O)[C@H](CCCNC(=N)N)NC(=O)[C@H](CCCNC(=N)N)NC(=O)[C@H](CCC(N)=O)NC(=O)[C@H](CCCNC(=N)N)NC(=O)[C@H](CCCNC(=N)N)NC(=O)[C@H](CCCCN)NC(=O)[C@H](CCCCN)NC(=O)[C@H](CCCNC(=N)N)NC(=O)CNC(=O)[C@H](Cc1ccc(O)cc1)NC(=O)[C@H](Cc1ccccc1)NC(=O)[C@H](Cc1ccccc1)NC(=O)[C@H](Cc1ccccc1)NC(=O)OCC1c2ccccc2-c2ccccc21)C(=O)O | – | – | C57BL/6 mice | intraperitoneal, 20 mg/kg, 6 h | direction not given | health score | 5
CSCC[C@H](N)C(=O)N[C@@H](C)C(=O)N[C@@H](CCCNC(=N)N)C(=O)N[C@@H](CCCNC(=N)N)C(=O)N[C@@H](CC(=O)O)C(=O)N[C@@H](CCCCN)C(=O)N[C@H](C(=O)N[C@@H](CC(=O)O)C(=O)N[C@@H](Cc1ccccc1)C(=O)N[C@@H](C)C(=O)N[C@@H](CCCNC(=N)N)C(=O)N[C@@H](CCCNC(=N)N)C(=O)N[C@@H](CCCNC(=N)N)C(=O)N[C@@H](CCCNC(=N)N)C(=O)NCCCCCC(=O)NCCCCC(NC(=O)CCCCCNC(=O)[C@H](CCCNC(=N)N)NC(=O)[C@H](CCCNC(=N)N)NC(=O)[C@H](CCCNC(=N)N)NC(=O)[C@H](CCCNC(=N)N)NC(=O)[C@H](C)NC(=O)[C@H](Cc1ccccc1)NC(=O)[C@H](CC(=O)O)NC(=O)[C@@H](NC(=O)[C@H](CCCCN)NC(=O)[C@H](CC(=O)O)NC(=O)[C@H](CCCNC(=N)N)NC(=O)[C@H](CCCNC(=N)N)NC(=O)[C@H](C)NC(=O)[C@@H](N)CCSC)[C@@H](C)O)C(=O)NCCCCC(NC(=O)C(CCCCNC(=O)CCCCCNC(=O)[C@H](CCCNC(=N)N)NC(=O)[C@H](CCCNC(=N)N)NC(=O)[C@H](CCCNC(=N)N)NC(=O)[C@H](CCCNC(=N)N)NC(=O)[C@H](C)NC(=O)[C@H](Cc1ccccc1)NC(=O)[C@H](CC(=O)O)NC(=O)[C@@H](NC(=O)[C@H](CCCCN)NC(=O)[C@H](CC(=O)O)NC(=O)[C@H](CCCNC(=N)N)NC(=O)[C@H](CCCNC(=N)N)NC(=O)[C@H](C)NC(=O)[C@@H](N)CCSC)[C@@H](C)O)NC(=O)CCCCCNC(=O)[C@H](CCCNC(=N)N)NC(=O)[C@H](CCCNC(=N)N)NC(=O)[C@H](CCCNC(=N)N)NC(=O)[C@H](CCCNC(=N)N)NC(=O)[C@H](C)NC(=O)[C@H](Cc1ccccc1)NC(=O)[C@H](CC(=O)O)NC(=O)[C@@H](NC(=O)[C@H](CCCCN)NC(=O)[C@H](CC(=O)O)NC(=O)[C@H](CCCNC(=N)N)NC(=O)[C@H](CCCNC(=N)N)NC(=O)[C@H](C)NC(=O)[C@@H](N)CCSC)[C@@H](C)O)C(N)=O)[C@@H](C)O (stereo partly drawn) | – | – | C57BL/6 mouse female, pancreas | dose not given, 3 h | reference: total | tissue distribution | 0.6% and 1.46% and 1.39%
CC[C@H](C)[C@H](NC(=O)[C@H](CCCCN)NC(=O)CNC(=O)[C@H](CC(C)C)NC(=O)[C@H](Cc1ccccc1)NC(=O)[C@H](CCCCN)NC(=O)[C@H](CO)NC(=O)[C@H](Cc1ccccc1)NC(=O)[C@H](Cc1c[nH]c2ccccc12)NC(=O)[C@H](CCC(N)=O)NC(=O)[C@@H](NC(=O)[C@H](Cc1ccccc1)NC(=O)CCCCCNC(=O)CN1CCN(CC(=O)O)CCN(CC(=O)O)CCN(CC(=O)O)CC1)C(C)C)C(=O)N[C@@H](CCC(=O)O)C(=O)N1CCC[C@H]1C(=O)N[C@@H](CC(=O)O)C(=O)N[C@H](C(=O)N[C@@H](CO)C(=O)N[C@@H](CCC(N)=O)C(=O)N[C@H](C(=O)N[C@@H](CCC(N)=O)C(=O)N[C@@H](CC(=O)O)C(=O)N1CCC[C@H]1C(=O)N[C@@H](CC(N)=O)C(=O)N[C@@H](CC(=O)O)C(=O)N[C@@H](CCC(N)=O)C(=O)N[C@@H](Cc1ccc(O)cc1)C(=O)N[C@@H](CCC(=O)O)C(=O)N1CCC[C@H]1C(=O)N[C@@H](Cc1ccccc1)C(=O)O)C(C)C)C(C)C [copper-64 labelled] | – | dynamic PET | mouse, CT26 tumour, untreated, tumour | intravenous, 100 µCi/mouse, 3500 s | – | SUVmean | 1.33 SUV
CC(C)[C@@H]1NC(=O)CNC(=O)[C@H](CC(N)=O)NC(=O)[C@H](CCCNC(=N)N)NC(=O)[C@H](Cc2ccc(O)cc2)NC(=O)[C@H](C(C)C)NC(=O)[C@@H](NC(=O)[C@@H](NC(=O)[C@H](CC(N)=O)NC(=O)[C@H](Cc2c[nH]c3ccccc23)NC(=O)[C@H](C)NC(=O)[C@H](Cc2ccccc2)NC(=O)CNC(=O)[C@H](CCCCN)NC(=O)[C@H](Cc2ccccc2)NC(=O)[C@H](Cc2ccccc2)NC(=O)[C@H](CCCCN)NC(=O)OCC2c3ccccc3-c3ccccc32)C(C)C)CSSC[C@@H](C(=O)N[C@@H](Cc2c[nH]cn2)C(=O)N[C@@H](CCCNC(=N)N)C(=O)N[C@@H](CCCNC(=N)N)C(=O)N[C@@H](C)C(=O)N[C@@H](CC(N)=O)C(N)=O)NC(=O)[C@H](C(C)C)NC(=O)[C@H](CCCNC(=N)N)NC1=O | – | – | ICR mice, blood | intraperitoneal, 10 mg/kg, day 5 | – | neutrophils | 19.5 ± 1.67%
O=C1NC2(CC2)COc2ncc(F)cc2[C@H]2COCCN2c2ccn3ncc1c3n2 | – | – | Sprague-Dawley rat, female, spleen | oral, 5 mg/kg/day, 4 weeks dosing, end of recovery | – | organ-to-brain weight ratio | 38.2 ± 8.16%
CC[C@H](C)[C@H](NC(=O)CN)C(=O)N[C@@H](CCCNC(=N)N)C(=O)N[C@@H](CCCCN)C(=O)N[C@@H](Cc1c[nH]c2ccccc12)C(=O)N[C@@H](Cc1ccccc1)C(=O)N[C@@H](CCCCN)C(=O)N[C@@H](CCCCN)C(=O)N[C@@H](C)C(=O)N[C@@H](C)C(=O)N[C@@H](Cc1c[nH]cn1)C(=O)N[C@H](C(=O)NCC(=O)N[C@@H](CCCCN)C(=O)N[C@@H](CCC(=O)O)C(=O)N[C@H](C(=O)NCC(=O)N[C@@H](CCCCN)C(=O)N[C@H](C(=O)N[C@@H](C)C(=O)N[C@@H](CC(C)C)C(=O)N[C@@H](CC(N)=O)C(=O)N[C@@H](C)C(=O)N[C@@H](CS)C(=O)N[C@@H](CC(C)C)C(=O)O)C(C)C)C(C)C)C(C)C | – | – | zebrafish embryos 4 hpf, E3 medium | 24 h | – | chronic toxic concentration | 5 µM
COc1ccccc1-c1n[nH]c2nc(NC3CCN(C(=O)Cc4ccc(F)cc4F)CC3)ncc12 | – | bead binding, competition bead pull-down, item: LMJF.35.0980 | Leishmania donovani extract | 10 µM | reference: vehicle | relative abundance | 1.04
O=C1NC(=O)c2c1c1cc(F)c[n+]3c1c1c2c2cc(O)ccc2[n]1[Ru-4]312([N]=C=S)[S+]3CC[S+]1CC[S+]2CC3 (stereo not drawn) | Casein kinase I isoform gamma-1 (CSNK1G1, Homo sapiens, UniProt Q9HCP0) | enzyme activity | – | 100 nM, human enzyme, together with: 10 µM ATP | reference: untreated | remaining activity | 3%
CSCC[C@H](NC(=O)CNC(=O)[C@H](CCCCN)NC(=O)[C@H](CC(C)C)NC(=O)[C@@H]1CCCN1C(=O)[C@H](CO)NC(=O)[C@H](Cc1c[nH]cn1)NC(=O)[C@H](Cc1c[nH]c2ccccc12)NC(=O)[C@H](CCCNC(=N)N)NC(=O)[C@H](CC(C)C)NC(=O)[C@H](CCCNC(=N)N)NC(=O)[C@H](Cc1c[nH]c2ccccc12)NC(=O)[C@H](CS)NC(=O)CCCCCNC(=O)CN1CCN(CC(=O)O)CCN(CC(=O)O)CCN(CC(=O)O)CC1)C(=O)O [copper-64 labelled] | – | – | BALB/c nude mouse, Huh-7 tumour, tumour and blood | intravenous, 1.85 MBq, 1 h, ex vivo biodistribution | reference: tumour over blood | tumour-to-blood ratio | 1.97
CN1Cc2cc(Cl)ccc2-n2c(nnc2C2CCN(c3cccc([18F])n3)CC2)C1 | – | PET two-tissue compartment model | rhesus monkey, thalamus | intravenous, dose not given, 70 min scan, baseline scan | – | total volume of distribution | 1.11 ± 0.32 mL/cm3
CS(C)(=O)=Nc1ccc(-c2ccc(-c3nc4cc(O[C@@H]5CO[C@H]6[C@@H]5OC[C@H]6O)[nH]c4cc3F)cc2)cc1 | SNF-related serine/threonine-protein kinase (SNRK, Homo sapiens, UniProt Q9NRH2) | enzyme activity, inhibitor | – | 10 µM | – | inhibition | -18%
CCCC[C@H]1C(=O)N(C)[C@@H](CCCC)C(=O)N[C@@H](CCCCNC(=S)Nc2ccc(CN3CCN(CC(=O)O)CCN(CC(=O)O)CC3)cc2)C(=O)N[C@H](C(=O)NCC(N)=O)CSCC(=O)N[C@@H](Cc2ccc(O)cc2)C(=O)N(C)[C@@H](C)C(=O)N[C@@H](CC(N)=O)C(=O)N2CCC[C@H]2C(=O)N[C@@H](Cc2cnc[nH]2)C(=O)N[C@@H](CCC(=O)O)C(=O)N2C[C@H](O)C[C@H]2C(=O)N[C@@H](Cc2c[nH]c3ccccc23)C(=O)N[C@@H](CO)C(=O)N[C@@H](Cc2cn(CC(=O)O)c3ccccc23)C(=O)N1C [fluorine-18 labelled] | – | region of interest, PET/CT | HT-29 MSS xenograft, huPBMC NSG mouse, female, tumour | intravenous, 60 min, together with: saline treated | – | tumour uptake | 7.56 ± 1.64 %ID/mL

Some of these lines once more:
SMILES | tested on | assay | system | setting | how to read | quantity | value
CSCC[C@H](N)C(=O)N[C@@H](C)C(=O)N[C@@H](CCCNC(=N)N)C(=O)N[C@@H](CCCNC(=N)N)C(=O)N[C@@H](CC(=O)O)C(=O)N[C@@H](CCCCN)C(=O)N[C@H](C(=O)N[C@@H](CC(=O)O)C(=O)N[C@@H](Cc1ccccc1)C(=O)N[C@@H](C)C(=O)N[C@@H](CCCNC(=N)N)C(=O)N[C@@H](CCCNC(=N)N)C(=O)N[C@@H](CCCNC(=N)N)C(=O)N[C@@H](CCCNC(=N)N)C(=O)NCCCCCC(=O)NCCCCC(NC(=O)CCCCCNC(=O)[C@H](CCCNC(=N)N)NC(=O)[C@H](CCCNC(=N)N)NC(=O)[C@H](CCCNC(=N)N)NC(=O)[C@H](CCCNC(=N)N)NC(=O)[C@H](C)NC(=O)[C@H](Cc1ccccc1)NC(=O)[C@H](CC(=O)O)NC(=O)[C@@H](NC(=O)[C@H](CCCCN)NC(=O)[C@H](CC(=O)O)NC(=O)[C@H](CCCNC(=N)N)NC(=O)[C@H](CCCNC(=N)N)NC(=O)[C@H](C)NC(=O)[C@@H](N)CCSC)[C@@H](C)O)C(=O)NCCCCC(NC(=O)C(CCCCNC(=O)CCCCCNC(=O)[C@H](CCCNC(=N)N)NC(=O)[C@H](CCCNC(=N)N)NC(=O)[C@H](CCCNC(=N)N)NC(=O)[C@H](CCCNC(=N)N)NC(=O)[C@H](C)NC(=O)[C@H](Cc1ccccc1)NC(=O)[C@H](CC(=O)O)NC(=O)[C@@H](NC(=O)[C@H](CCCCN)NC(=O)[C@H](CC(=O)O)NC(=O)[C@H](CCCNC(=N)N)NC(=O)[C@H](CCCNC(=N)N)NC(=O)[C@H](C)NC(=O)[C@@H](N)CCSC)[C@@H](C)O)NC(=O)CCCCCNC(=O)[C@H](CCCNC(=N)N)NC(=O)[C@H](CCCNC(=N)N)NC(=O)[C@H](CCCNC(=N)N)NC(=O)[C@H](CCCNC(=N)N)NC(=O)[C@H](C)NC(=O)[C@H](Cc1ccccc1)NC(=O)[C@H](CC(=O)O)NC(=O)[C@@H](NC(=O)[C@H](CCCCN)NC(=O)[C@H](CC(=O)O)NC(=O)[C@H](CCCNC(=N)N)NC(=O)[C@H](CCCNC(=N)N)NC(=O)[C@H](C)NC(=O)[C@@H](N)CCSC)[C@@H](C)O)C(N)=O)[C@@H](C)O (stereo partly drawn) | – | – | C57BL/6 mouse female, pancreas | dose not given, 3 h | reference: total | tissue distribution | 0.6% and 1.46% and 1.39%
CC(C)[C@@H]1NC(=O)CNC(=O)[C@H](CC(N)=O)NC(=O)[C@H](CCCNC(=N)N)NC(=O)[C@H](Cc2ccc(O)cc2)NC(=O)[C@H](C(C)C)NC(=O)[C@@H](NC(=O)[C@@H](NC(=O)[C@H](CC(N)=O)NC(=O)[C@H](Cc2c[nH]c3ccccc23)NC(=O)[C@H](C)NC(=O)[C@H](Cc2ccccc2)NC(=O)CNC(=O)[C@H](CCCCN)NC(=O)[C@H](Cc2ccccc2)NC(=O)[C@H](Cc2ccccc2)NC(=O)[C@H](CCCCN)NC(=O)OCC2c3ccccc3-c3ccccc32)C(C)C)CSSC[C@@H](C(=O)N[C@@H](Cc2c[nH]cn2)C(=O)N[C@@H](CCCNC(=N)N)C(=O)N[C@@H](CCCNC(=N)N)C(=O)N[C@@H](C)C(=O)N[C@@H](CC(N)=O)C(N)=O)NC(=O)[C@H](C(C)C)NC(=O)[C@H](CCCNC(=N)N)NC1=O | – | – | ICR mice, blood | intraperitoneal, 10 mg/kg, day 5 | – | neutrophils | 19.5 ± 1.67%
